Measured values from different studies.
Numbered parts are unrelated; each lists some results of a single study.
UniProt O60674, sequence (whole entry, looked up): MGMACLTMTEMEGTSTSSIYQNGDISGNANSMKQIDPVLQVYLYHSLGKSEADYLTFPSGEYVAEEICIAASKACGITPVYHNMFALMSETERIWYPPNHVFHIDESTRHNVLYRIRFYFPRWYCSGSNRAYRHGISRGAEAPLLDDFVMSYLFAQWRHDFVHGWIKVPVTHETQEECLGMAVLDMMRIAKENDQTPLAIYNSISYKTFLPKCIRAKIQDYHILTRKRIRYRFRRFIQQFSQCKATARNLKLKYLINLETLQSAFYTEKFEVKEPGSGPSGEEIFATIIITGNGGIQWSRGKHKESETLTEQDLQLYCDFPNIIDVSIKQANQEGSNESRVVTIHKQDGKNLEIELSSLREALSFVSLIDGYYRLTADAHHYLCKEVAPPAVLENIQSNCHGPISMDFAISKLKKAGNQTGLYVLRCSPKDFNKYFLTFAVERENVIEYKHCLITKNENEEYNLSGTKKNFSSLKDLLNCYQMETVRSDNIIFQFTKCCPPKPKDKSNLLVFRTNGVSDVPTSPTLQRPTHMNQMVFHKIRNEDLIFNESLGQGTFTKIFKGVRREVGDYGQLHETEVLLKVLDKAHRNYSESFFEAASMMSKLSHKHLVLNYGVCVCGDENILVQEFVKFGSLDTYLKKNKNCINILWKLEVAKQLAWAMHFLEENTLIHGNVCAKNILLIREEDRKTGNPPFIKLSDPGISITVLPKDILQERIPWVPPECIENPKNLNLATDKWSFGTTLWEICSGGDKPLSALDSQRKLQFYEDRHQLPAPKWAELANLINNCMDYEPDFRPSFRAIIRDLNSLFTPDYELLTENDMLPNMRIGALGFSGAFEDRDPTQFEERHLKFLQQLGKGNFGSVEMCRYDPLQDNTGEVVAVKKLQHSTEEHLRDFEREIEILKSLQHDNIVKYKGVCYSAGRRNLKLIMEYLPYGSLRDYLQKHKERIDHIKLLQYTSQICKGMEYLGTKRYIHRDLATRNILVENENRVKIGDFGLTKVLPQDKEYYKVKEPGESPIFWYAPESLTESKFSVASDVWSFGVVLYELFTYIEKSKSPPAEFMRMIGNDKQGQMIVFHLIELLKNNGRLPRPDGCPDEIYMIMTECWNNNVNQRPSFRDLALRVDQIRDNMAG
UniProt P00519, sequence (whole entry, unmodified, looked up): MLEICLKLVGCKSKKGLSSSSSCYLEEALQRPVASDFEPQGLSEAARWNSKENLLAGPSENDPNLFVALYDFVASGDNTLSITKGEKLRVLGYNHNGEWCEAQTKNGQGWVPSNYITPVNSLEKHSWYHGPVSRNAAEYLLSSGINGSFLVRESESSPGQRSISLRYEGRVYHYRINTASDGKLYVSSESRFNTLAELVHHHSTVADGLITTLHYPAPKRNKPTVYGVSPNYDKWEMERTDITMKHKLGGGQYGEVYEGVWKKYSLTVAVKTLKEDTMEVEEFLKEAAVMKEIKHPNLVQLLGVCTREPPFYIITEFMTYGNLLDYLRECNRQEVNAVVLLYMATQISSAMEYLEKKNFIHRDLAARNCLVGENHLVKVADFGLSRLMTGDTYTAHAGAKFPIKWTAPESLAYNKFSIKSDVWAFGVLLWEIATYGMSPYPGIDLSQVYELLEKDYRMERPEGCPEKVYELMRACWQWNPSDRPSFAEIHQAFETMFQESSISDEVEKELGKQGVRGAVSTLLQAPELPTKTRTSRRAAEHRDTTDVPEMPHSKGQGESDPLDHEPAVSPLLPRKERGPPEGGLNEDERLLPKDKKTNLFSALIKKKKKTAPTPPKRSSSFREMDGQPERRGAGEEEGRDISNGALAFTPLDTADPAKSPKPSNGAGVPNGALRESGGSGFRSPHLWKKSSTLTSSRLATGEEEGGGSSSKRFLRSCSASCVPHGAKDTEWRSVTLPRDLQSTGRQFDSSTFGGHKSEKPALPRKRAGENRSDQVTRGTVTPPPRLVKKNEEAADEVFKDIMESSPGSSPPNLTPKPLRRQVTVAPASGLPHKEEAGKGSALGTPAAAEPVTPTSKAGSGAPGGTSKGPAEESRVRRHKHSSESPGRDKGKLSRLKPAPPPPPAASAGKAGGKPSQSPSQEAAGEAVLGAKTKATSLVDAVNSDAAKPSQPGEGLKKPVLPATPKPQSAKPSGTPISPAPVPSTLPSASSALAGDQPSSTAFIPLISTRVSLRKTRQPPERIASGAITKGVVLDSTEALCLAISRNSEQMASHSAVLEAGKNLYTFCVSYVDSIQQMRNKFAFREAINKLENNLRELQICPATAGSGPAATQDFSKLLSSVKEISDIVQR
UniProt Q00535, sequence (whole entry, looked up): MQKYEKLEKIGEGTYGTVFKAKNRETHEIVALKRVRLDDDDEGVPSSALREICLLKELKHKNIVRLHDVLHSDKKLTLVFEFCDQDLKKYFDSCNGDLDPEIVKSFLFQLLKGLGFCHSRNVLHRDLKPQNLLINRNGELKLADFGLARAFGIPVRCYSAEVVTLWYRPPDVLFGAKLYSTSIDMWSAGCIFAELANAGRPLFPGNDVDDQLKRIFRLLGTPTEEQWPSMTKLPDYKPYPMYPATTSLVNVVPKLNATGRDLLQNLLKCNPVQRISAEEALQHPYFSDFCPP
UniProt O96013, sequence (whole entry, looked up): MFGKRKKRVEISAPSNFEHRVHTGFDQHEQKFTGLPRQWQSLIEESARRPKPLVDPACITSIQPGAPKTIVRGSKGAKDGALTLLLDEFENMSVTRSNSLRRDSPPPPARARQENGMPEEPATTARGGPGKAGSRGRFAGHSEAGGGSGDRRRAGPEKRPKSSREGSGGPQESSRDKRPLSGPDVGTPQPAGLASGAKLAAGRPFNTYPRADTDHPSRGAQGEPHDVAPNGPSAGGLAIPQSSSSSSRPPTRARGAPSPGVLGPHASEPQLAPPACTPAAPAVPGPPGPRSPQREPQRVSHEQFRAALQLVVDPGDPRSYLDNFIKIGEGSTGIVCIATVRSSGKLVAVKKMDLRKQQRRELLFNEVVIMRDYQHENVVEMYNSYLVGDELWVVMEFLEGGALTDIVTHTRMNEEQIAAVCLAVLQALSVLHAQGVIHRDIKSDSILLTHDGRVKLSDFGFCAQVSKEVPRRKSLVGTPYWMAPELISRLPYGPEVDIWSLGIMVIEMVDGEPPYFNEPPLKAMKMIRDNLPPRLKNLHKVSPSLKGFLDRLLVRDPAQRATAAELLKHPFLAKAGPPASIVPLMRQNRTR
UniProt Q14680, sequence (whole entry, looked up): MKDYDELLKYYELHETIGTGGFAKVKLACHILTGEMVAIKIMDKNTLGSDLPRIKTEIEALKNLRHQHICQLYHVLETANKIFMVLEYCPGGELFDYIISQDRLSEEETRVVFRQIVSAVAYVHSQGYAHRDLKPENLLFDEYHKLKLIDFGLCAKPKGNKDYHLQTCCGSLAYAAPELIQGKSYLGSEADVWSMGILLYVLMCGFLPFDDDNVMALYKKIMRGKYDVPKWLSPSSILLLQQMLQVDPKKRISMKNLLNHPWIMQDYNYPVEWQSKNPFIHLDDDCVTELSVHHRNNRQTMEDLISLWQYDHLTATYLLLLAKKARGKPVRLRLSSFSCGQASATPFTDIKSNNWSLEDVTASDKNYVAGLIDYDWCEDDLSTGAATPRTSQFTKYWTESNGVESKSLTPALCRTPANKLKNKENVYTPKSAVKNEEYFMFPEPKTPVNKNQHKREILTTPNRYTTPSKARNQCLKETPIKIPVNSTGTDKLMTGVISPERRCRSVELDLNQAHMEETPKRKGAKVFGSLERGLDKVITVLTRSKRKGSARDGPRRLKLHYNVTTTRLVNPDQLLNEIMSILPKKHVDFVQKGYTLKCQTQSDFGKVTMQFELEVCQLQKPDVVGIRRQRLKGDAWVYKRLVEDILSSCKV

Block 1
Organism: Sarcocystis neurona
Read-out: parasite growth
Tested at: 10 µM
Notes: secondary screen
| SMILES | inhibition [%] |
| --- | --- |
| C[C@]12C=CC(=O)C=C1CC[C@@H]1[C@@H]2[C@@H](O)C[C@@]2(C)[C@H]1CC[C@]2(O)C(=O)CO | -28 |
| O=C(O)C[C@H](O)C[C@H](O)/C=C/c1c(C2CC2)nc2ccccc2c1-c1ccc(F)cc1 | -8.4 |
| C[C@H]1C[C@H]2[C@@H]3CCC4=CC(=O)C=C[C@]4(C)[C@@]3(F)[C@@H](O)C[C@]2(C)[C@@]1(O)C(=O)CO | -50.9 |
| CCCCC(=O)N(Cc1ccc(-c2ccccc2-c2nnn[nH]2)cc1)[C@H](C(=O)O)C(C)C | -51 |
| C[C@H](CCC(=O)O)[C@H]1CC[C@H]2[C@@H]3[C@@H](O)C[C@@H]4C[C@H](O)CC[C@]4(C)[C@H]3CC[C@]12C | -19.9 |
| COc1ccc([C@@H]2Sc3ccccc3N(CCN(C)C)C(=O)[C@@H]2OC(C)=O)cc1 | 8.7 |
| CCCN(CCC)S(=O)(=O)c1ccc(C(=O)O)cc1 | -27.7 |
| CO[C@H]1/C=C/O[C@@]2(C)Oc3c(C)c(O)c4c(O)c(c(/C=N/N5CCN(C)CC5)c(O)c4c3C2=O)NC(=O)/C(C)=C\C=C\[C@H](C)[C@H](O)[C@@H](C)[C@@H](O)[C@@H](C)[C@H](OC(C)=O)[C@@H]1C | -50 |

Block 2
Compound: Nc1ncnc2c1cnn2-c1ccccc1
Read-out: enzyme activity
Action: inhibitor
Tested at: 0.5 µM
Baseline: control
| target | remaining activity |
| --- | --- |
| FES (Homo sapiens, UniProt P07332) | 99.7% |
| JAK2 (Homo sapiens, UniProt O60674) | 91.6% |
| RPS6KB2 (Homo sapiens, UniProt Q9UBS0) | 87.5% |
| MELK (Homo sapiens, UniProt Q14680) | 92.6% |
| MARK1 (Homo sapiens, UniProt Q9P0L2) | 94.8% |
| Cyclin-dependent kinase 5, with p35 (CDK5, Homo sapiens, UniProt Q00535) | 99.2% |
| ERBB2 (Homo sapiens, UniProt P04626) | 107% |
| PIM1 (Homo sapiens, UniProt P11309) | 99.4% |
| PAK4 (Homo sapiens, UniProt O96013) | 86.5% |

Block 3
Host: mouse
Matrix: microsomes or S9
Tested at: 2 µM
Time: 0.5 h
| SMILES | remaining compound [%] |
| --- | --- |
| COC(=O)CC(c1cc(OC)c(O)c(OC)c1)c1c(O)n2ccccc2nc1=O (centres unmarked) | 78.2 |
| Cc1c(C(=O)O)[nH]c(CCNC(=O)OC(C)(C)C)c1S(N)(=O)=O | 75.4 |
| COc1cc(NC(=O)c2cnn(-c3ccc(C)cc3C)c2C2CCNCC2)cc(OC)c1OC | > 100 |
| O=C(Nc1ccc(Cc2nnn[nH]2)cc1)C1CCN(c2ccc(Cl)cn2)CC1 | 96 |
| Cc1nc(C)c(C(=O)NCc2ccccc2)c(-c2ccc(Cl)cc2)c1C(=O)O | > 99 |
| Cc1nn(CC(=O)NCCN2CCCCC2C)c(C)c1C (centres unmarked) | 0.154 |
| O=C(O)c1ccc(-c2noc3ccc(-c4ccc(O)cc4)cc23)cc1 | 80.4 |
| CN/C(=N/c1cc(C)nn1-c1ccccc1)c1cccs1 | 4.79 |
| CC(C)(NCc1ccncc1Cl)c1ccc(F)cc1Cl | 1.91 |
| CO[C@H]1C[C@H]2CC(C)(O)[C@@H](/C=C/c3ccc(-c4cccc(F)c4)cn3)[C@@H]2C[C@H]1NC(=O)OC(C)(C)C (some centres unmarked) | 80.9 |
| O=C(Nc1ccccc1)c1cn2c(n1)C(c1ccccc1)N(C(=O)c1ccccc1)CC2 (centres unmarked) | 61.3 |
| CC1=C2C(CCS2(=O)=O)CC2(C1)C(=O)OC(C)(C)OC2=O (centres unmarked) | > 99 |
| COc1ccc(-c2coc3c(O)c(OC)ccc3c2=O)cc1 | 12.2 |

Mixed results
| SMILES | target | test | setting | quantity | value |
| --- | --- | --- | --- | --- | --- |
| Cn1cncc1[C@](O)(COc1ccc(C#N)cc1-c1ccc(OC(F)(F)F)cc1)c1ccc(C#N)cc1 | Tyrosine-protein kinase ABL1, non-phosphorylated (ABL1, Homo sapiens, UniProt P00519, F317I) | binding, competition with immobilised ligand | 1 µM | remaining binding | 98% |
| COc1cccc(NC(=O)c2nc3scc(CN(C)Cc4ccccc4)c3c(=O)[nH]2)c1 | HTR1B (Homo sapiens, UniProt P28222) | ligand displacement | 10 µM | inhibition | -2.26% |

A few entries again (block 2):
| target | remaining activity |
| --- | --- |
| JAK2 (Homo sapiens, UniProt O60674) | 91.6% |
| RPS6KB2 (Homo sapiens, UniProt Q9UBS0) | 87.5% |
| MELK (Homo sapiens, UniProt Q14680) | 92.6% |
